Published values from different studies.
Each line is one published result; not all experiments were run side by side. Several values in a cell are separate wells, animals, samples, runs or records. Numbers after ± are the reported error.
CASP7: Caspase-7 (CASP7, Homo sapiens, UniProt P55210)
Chain of UniProt P55210 (whole entry, looked up): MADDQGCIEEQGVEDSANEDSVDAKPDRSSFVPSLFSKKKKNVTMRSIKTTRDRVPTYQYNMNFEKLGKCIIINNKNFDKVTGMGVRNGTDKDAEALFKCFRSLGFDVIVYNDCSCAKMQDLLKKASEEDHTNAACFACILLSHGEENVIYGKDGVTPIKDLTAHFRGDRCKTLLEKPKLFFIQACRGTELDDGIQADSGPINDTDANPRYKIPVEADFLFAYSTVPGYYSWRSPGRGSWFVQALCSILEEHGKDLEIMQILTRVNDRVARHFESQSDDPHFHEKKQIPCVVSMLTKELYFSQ
Genome polyprotein NS2B-NS3 protease: Genome polyprotein, NS2B-NS3 protease (dengue virus type 2, UniProt P29990)
T1: G-quadruplex DNA, G-quadruplex (Homo sapiens); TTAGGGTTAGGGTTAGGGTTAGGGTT
Chain of UniProt P35821 (whole entry, looked up): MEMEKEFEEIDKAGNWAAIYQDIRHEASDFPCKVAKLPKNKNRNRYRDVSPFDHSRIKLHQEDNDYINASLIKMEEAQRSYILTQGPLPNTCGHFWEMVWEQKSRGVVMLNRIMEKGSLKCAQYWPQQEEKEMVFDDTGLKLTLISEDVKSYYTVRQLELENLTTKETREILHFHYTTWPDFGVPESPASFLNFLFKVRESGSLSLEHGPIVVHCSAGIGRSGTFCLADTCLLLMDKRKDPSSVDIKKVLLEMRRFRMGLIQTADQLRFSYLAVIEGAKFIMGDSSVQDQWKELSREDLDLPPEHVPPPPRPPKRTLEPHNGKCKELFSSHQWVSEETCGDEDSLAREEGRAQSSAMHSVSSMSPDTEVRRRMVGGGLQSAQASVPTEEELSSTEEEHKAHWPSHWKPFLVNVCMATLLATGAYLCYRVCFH
Chain of UniProt Q16539 (whole entry, unmodified, looked up): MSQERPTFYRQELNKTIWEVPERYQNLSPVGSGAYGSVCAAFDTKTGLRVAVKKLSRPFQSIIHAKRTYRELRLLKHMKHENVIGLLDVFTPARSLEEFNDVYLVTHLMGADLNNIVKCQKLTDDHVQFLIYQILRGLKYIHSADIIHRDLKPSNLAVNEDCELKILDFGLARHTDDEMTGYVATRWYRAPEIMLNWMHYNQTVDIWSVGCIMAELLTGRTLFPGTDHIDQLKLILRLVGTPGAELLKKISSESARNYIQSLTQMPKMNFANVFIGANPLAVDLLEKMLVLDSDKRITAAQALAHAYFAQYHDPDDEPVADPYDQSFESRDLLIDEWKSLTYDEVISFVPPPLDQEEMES
Chain of UniProt P04756 (whole entry, unmodified, looked up): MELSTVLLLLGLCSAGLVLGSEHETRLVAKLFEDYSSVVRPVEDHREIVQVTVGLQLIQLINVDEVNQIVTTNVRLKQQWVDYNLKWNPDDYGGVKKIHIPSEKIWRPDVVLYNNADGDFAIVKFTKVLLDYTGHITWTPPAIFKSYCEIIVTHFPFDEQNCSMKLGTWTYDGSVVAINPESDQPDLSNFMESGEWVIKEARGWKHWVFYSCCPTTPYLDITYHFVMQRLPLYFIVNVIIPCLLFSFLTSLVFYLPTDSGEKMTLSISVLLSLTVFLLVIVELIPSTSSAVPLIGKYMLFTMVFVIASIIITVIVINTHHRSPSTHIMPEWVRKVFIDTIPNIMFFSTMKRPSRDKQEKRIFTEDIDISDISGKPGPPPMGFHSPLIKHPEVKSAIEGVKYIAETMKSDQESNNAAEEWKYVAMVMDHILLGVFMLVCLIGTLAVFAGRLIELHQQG
Chain of UniProt P19491 (whole entry, looked up): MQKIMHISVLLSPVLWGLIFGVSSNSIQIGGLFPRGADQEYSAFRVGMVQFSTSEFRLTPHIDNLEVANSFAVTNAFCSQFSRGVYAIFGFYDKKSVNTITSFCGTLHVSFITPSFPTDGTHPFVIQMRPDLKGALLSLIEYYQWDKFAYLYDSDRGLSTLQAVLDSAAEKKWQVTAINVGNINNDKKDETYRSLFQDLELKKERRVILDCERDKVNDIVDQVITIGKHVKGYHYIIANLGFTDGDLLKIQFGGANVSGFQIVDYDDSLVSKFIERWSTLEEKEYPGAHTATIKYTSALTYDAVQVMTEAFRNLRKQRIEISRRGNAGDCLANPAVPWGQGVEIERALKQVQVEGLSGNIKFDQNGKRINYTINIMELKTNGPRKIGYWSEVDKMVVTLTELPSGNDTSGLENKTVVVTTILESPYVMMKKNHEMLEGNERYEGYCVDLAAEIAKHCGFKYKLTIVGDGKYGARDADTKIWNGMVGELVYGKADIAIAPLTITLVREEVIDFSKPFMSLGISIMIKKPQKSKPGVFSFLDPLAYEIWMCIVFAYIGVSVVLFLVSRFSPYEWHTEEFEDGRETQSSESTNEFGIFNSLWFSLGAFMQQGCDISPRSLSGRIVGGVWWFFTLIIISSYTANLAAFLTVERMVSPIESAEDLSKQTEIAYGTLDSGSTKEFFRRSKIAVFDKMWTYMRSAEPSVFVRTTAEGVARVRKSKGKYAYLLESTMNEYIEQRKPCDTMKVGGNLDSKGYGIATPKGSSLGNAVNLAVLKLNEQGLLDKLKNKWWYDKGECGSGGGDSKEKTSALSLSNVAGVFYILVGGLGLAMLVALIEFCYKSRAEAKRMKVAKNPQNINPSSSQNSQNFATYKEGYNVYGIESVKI
Chain of UniProt Q93009 (whole entry, looked up): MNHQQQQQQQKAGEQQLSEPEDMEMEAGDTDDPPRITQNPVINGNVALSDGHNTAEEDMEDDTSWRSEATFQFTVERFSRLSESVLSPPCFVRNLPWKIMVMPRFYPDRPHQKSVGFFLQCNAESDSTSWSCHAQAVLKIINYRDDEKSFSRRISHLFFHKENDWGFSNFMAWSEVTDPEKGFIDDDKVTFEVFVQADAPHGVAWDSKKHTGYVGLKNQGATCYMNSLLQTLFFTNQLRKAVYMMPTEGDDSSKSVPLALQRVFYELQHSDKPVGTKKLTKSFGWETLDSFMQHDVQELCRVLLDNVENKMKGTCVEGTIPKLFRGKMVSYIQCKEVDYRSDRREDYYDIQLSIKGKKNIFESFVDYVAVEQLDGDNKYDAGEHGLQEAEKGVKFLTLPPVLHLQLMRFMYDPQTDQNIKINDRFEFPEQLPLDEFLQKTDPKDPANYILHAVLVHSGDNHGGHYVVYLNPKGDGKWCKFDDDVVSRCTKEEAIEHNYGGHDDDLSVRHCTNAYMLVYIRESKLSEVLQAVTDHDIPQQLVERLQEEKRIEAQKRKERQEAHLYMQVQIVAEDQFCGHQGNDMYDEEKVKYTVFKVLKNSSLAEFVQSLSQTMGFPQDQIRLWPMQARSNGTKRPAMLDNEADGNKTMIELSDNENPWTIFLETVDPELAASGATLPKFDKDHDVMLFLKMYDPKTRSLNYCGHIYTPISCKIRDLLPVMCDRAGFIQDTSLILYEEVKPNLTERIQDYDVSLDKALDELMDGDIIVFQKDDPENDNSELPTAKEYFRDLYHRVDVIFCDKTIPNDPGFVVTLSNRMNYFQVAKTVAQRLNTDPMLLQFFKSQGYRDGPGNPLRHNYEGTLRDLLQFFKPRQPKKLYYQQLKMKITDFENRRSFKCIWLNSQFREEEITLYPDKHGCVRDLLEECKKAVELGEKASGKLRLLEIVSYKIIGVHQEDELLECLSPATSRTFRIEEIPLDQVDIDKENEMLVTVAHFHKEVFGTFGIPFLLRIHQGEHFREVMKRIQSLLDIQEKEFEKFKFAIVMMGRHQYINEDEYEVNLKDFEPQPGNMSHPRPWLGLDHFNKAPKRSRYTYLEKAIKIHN
Chain of UniProt Q03431 (whole entry, looked up): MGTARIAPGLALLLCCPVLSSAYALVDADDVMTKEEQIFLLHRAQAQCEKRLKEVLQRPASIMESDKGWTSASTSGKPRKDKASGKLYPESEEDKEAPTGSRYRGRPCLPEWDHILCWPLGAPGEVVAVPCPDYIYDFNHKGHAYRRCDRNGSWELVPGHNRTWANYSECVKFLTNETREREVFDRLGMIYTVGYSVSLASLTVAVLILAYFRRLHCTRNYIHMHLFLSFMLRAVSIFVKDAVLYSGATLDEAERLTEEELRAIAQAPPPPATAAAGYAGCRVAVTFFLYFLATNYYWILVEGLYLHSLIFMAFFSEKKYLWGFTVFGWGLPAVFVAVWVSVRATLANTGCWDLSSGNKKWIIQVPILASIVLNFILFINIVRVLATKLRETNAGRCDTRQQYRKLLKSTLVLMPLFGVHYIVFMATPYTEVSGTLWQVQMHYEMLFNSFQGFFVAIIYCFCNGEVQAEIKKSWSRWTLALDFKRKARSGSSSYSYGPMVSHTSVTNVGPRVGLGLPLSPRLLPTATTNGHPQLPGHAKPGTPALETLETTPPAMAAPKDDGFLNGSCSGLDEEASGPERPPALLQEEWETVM
Chain of UniProt P20782 (whole entry, unmodified, looked up): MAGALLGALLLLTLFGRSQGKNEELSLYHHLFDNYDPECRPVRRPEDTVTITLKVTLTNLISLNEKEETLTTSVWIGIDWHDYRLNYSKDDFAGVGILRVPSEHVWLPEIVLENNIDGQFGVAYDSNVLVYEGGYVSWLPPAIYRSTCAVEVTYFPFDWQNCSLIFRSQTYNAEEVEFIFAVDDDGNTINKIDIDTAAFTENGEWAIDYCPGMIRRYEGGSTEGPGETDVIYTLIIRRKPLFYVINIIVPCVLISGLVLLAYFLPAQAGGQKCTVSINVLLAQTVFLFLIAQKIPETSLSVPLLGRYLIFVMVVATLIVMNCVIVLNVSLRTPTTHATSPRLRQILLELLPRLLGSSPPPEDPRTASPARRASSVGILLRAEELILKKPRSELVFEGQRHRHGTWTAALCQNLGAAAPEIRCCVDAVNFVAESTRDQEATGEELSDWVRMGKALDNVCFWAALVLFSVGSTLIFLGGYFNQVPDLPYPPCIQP
Chain of UniProt P34972 (whole entry, looked up): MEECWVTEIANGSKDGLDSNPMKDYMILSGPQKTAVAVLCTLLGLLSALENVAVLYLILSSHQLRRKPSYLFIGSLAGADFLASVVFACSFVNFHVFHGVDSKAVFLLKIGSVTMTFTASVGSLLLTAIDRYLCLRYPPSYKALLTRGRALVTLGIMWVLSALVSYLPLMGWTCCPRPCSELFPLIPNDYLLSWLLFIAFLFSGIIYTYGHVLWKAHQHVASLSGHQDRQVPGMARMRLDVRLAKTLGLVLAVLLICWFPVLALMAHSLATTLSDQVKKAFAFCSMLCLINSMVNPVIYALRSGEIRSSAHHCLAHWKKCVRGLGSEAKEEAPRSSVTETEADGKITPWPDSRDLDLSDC

C[N+]1(C)CCSC1
affinity ratio (Chrnd/Chrna1/Chrne (Mus musculus, UniProt P02716+P04756+P20782, G173S/S470W); ligand binding, agonist, single-channel kinetics; chain S; reference: wild type over mutant): 1.7

CCCCCCCCCCCCCCCC(=O)NCCCC[C@H](NC(=O)[C@H](CCC(=O)O)NC(=O)[C@H](Cc1ccc(O)cc1)NC(=O)[C@H](CCC(=O)O)NC(=O)COCC(=O)NCCCOCCOCCOCCCNC(=O)[C@H](Cc1c[nH]c2ccccc12)NC(=O)[C@H](CCCCN)NC(=O)[C@H](C)NC(=O)[C@H](CCCCNC(=N)N)NC(=O)[C@H](CCC(N)=O)NC(=O)[C@H](Cc1c[nH]cn1)NC(=O)[C@H](CCSC)NC(=O)[C@H](CC(C)C)NC(=O)[C@H](CCC(N)=O)NC(=O)[C@@H](NC(=O)[C@H](CCC(=O)O)NC(=O)C(C)(C)NC(=O)[C@@H](NC(=O)C(C)(C)N)C(C)C)[C@@H](C)CC)C(=O)N[C@@H](CCC(=O)O)C(=O)N[C@@H](Cc1ccc(O)cc1)C(=O)N[C@@H](CCC(=O)O)C(N)=O
cAMP luminescence AUC (PTH1R (Homo sapiens, UniProt Q03431); agonist; Saos-2 with cAMP reporter; 3.16 pM, 90 min, washout after 30 min ligand; higher = more cAMP): 130 a.u.

N#CN1CC[C@H](C(=O)Nc2nc3c(s2)CN(C(=O)Cn2cc(CNC(=O)CCCC[C@@H]4SC[C@@H]5NC(=O)N[C@@H]54)nn2)CC3)C1
iBAQ abundance (USP7 (Homo sapiens, UniProt Q93009); probe binding, affinity probe, neutravidin pull-down LC-MS/MS; HEK293T, cell lysate; 5 µM, 1 h, mean of three replicates, unit not given; higher = more pulled down): 1.06e+07

COC1CN([C@H]2CC[C@H]([C@@]3(C)Oc4c(Cl)cc(C(=O)NCc5c(SC)cc(C)[nH]c5=O)c(C)c4O3)CC2)C1
log2 fold change (RNA-seq, item: ADGRG6; human, whole blood; dose not given, 24 h; reference: pretreatment baseline): 3.86

Cn1c(=O)n(C2CCC(=O)NC2=O)c2ccc(C3CCN(CC(=O)Nc4cccc(CS(=O)(=O)N5CC[C@H](Nc6cccc(-c7sc(C(=O)O)c(OCC(=O)O)c7Cl)c6)CC5(C)C)c4)CC3)cc21 (stereo partly drawn)
remaining protein (Tyrosine-protein phosphatase non-receptor type 1 (Mus musculus, UniProt P35821); degrader, Western blot; B16-F10; 10 µM, with: DMSO pretreatment): 0% and 0.753%

Cc1ncsc1-c1ccc(C(C)NC(=O)C2CC(O)CN2C(=O)C(NC(=O)CCCCCCCCCCN2CCCC(Nc3ncc(Cl)c(Nc4ccccc4S(=O)(=O)C(C)C)n3)C2)C(C)(C)C)cc1 (stereo not drawn)
log2 fold change (22Rv1; RNA-seq, item: MTFR2 mRNA; concentration not given; reference: DMSO): -2.68

CCCCCC=CC=C1C(=O)C=CC1CC=CCCCC(=O)O (stereo not drawn)
isoTOP-ABPP competition ratio (Fatty acid synthase (FASN, Homo sapiens, UniProt P49327); competitive isoTOP-ABPP; Ramos soluble proteome; 100 µM, with: iodoacetamide probe; reference: DMSO over compound-treated, higher = stronger cysteine blockade): 1.6

O=C(O)Cc1cc2c(cc1C(=O)c1cccc(Cl)c1)OCO2
desensitization time constant (Gria2 (Rattus norvegicus, UniProt P19491); glutamate-evoked current, whole-cell patch clamp; HEK-293T; concentration not given, weighted tau, 500 ms pulse, with: glutamate): 0.7 ± 0.06 ms

CCOC(=O)C(CC)(CCCOC)NC(=O)c1ccc(C2CC2)c(Cc2ccc(F)cc2)n1 (stereo not drawn)
Ki ratio (CNR2 (Homo sapiens, UniProt P34972); radioligand binding; reference: CB1 over CB2 (human)): 4

CC(=O)N[C@@H](Cc1ccc(O)cc1)C(=O)N1CSC[C@H]1C(=O)N[C@@H](C)C(=O)N[C@@H](CC(=O)O)C(=O)COC(=O)c1c(C)cccc1C
kinact/KI (CASP7; enzyme activity, inhibitor): 1700 M⁻¹ s⁻¹

COC(=O)[C@@]1(Cc2ccccc2)C=C(C(=O)OC(C)(C)C)C(=O)CC1
fraction bound (MAPK14 (Homo sapiens, UniProt Q16539, C119V); peptide binding, fluorescence polarization; 3.906 µM): 0.72

CC(=O)N[C@@H](CC(C)C)C(=O)N[C@@H](CCC(=O)O)C(=O)N[C@@H](Cc1c[nH]cn1)C(=O)N[C@@H](CC(=O)O)C(=O)COC(=O)c1c(C)cccc1C
kinact/KI (CASP7; enzyme activity, inhibitor): 15500 M⁻¹ s⁻¹

Cc1ccccc1-n1nc(C(=O)Nc2cccc(C(N)=O)c2)cc1-c1cccnc1
EC50 (Genome polyprotein NS2B-NS3 protease; reporter gene; HeLa): 9.7 µM

CN(C)c1ccc2c(c1)C(=O)N(CCc1ccc(S(N)(=O)=O)cc1)C2=O
emission maximum (CA2 (Bos taurus, UniProt P00921); binding): 539 nm

CN(C)c1ccc(C2=C/C(=C/C=C/c3sc4ccccc4[n+]3C)c3ccccc3O2)cc1
binding (T1, G-quadruplex DNA, G-quadruplex (Homo sapiens); fluorescence turn-on): binds

CCCCCCCCCCCCCCCC(=O)OCC(CSC[C@H](N)C(=O)N[C@@H](CO)C(=O)N[C@@H](CCCCN)C(=O)N[C@@H](CCCCN)C(=O)N[C@@H](CCCCN)C(=O)N[C@@H](CCCCN)C(=O)NCCCCCC(=O)N[C@@H](CCCCN)C(=O)N[C@@H](CC(C)C)C(=O)N[C@H](C(=O)N[C@@H](Cc1ccccc1)C(=O)N[C@@H](Cc1ccccc1)C(=O)N[C@@H](Cc1ccc2ccccc2c1)C(=O)O)C(C)C)OC(=O)CCCCCCCCCCCCCCC (stereo partly drawn)
fibril diameter (Amyloid-beta precursor protein, fibrillar amyloid-beta (APP, Homo sapiens, UniProt P05067); TEM; 2.0 eq, 18 h, fibril 2, with: APP 20 µM): 17.4 nm

NC(=O)c1cccc(NC(=O)c2cc(O)n(-c3ccccc3)n2)c1
EC50 (Genome polyprotein NS2B-NS3 protease; reporter gene; HeLa): > 50 µM

CC(=O)Nc1ccc(-c2ccnc(NCC3CCC3)n2)cc1
number of kinases hit (human kinase panel; binding, KINOMEscan; 10000 nM, %Ctrl below 1): 1
